Measurements gathered from unrelated publications.
Numbered parts are unrelated; each lists some results of a single study.

Sample 1 — method: protein binding microarray; form: double-stranded DNA, one strand shown; sample: in vitro; concentration: not given; reference: not given; reading: higher = stronger binding
Target: Histone acetyltransferase KAT6A, winged helix 2, GST fusion (KAT6A, Homo sapiens, UniProt Q92794, residues 85-181)
Notes: 8-mer, flanks averaged, mean of 2 arrays, mostly near background
Residues (chain): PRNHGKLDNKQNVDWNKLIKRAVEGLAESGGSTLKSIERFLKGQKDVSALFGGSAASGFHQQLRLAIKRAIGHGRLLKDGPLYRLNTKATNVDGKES
For `AGGGGTGA`, the E-score was -0.199.
`ATCCCACG` gave an E-score of -0.00839.
`AGGTACGG` gave an E-score of -0.123.
`ACTCTATC` gave an E-score of -0.0937.
For `CGGCTTCA`, the E-score was 0.175.
For `AATTGGCG`, the E-score was -0.0748.
The E-score of `CAGAATTA` is reported as 0.0641.
`CACATCAG` gave an E-score of -0.174.
The E-score of `GCTCAGAC` is reported as 0.0367.
The E-score of `ACACGAGA` is reported as -0.0915.
`GAGCAAGA` has an E-score of 0.125.
`ACGCCCGG` has an E-score of 0.234.
`AACTAGCT` has an E-score of 0.102.
The E-score of `GCGCCCTA` is reported as 0.0421.
For `TAGTTCGA`, the E-score was -0.00609.
`AGAGGCAG` gave an E-score of -0.00936.
`AAAGAACT` gave an E-score of 0.124.
`AATCTTCA` has an E-score of 0.0505.
`AATTGCTG` gave an E-score of 0.0212.
With `GAGCACAC` the E-score was -0.0965.

Sample 2 — method: aptamer microarray, sandwich; form: DNA with 2'F-ANA; sample: in vitro; concentration: 200 nM; together with: Cy3 exosite-II aptamer, 400 nM; reading: higher = stronger binding; sequence: GGTTGGTGTGGTTGG
Target: Prothrombin, mature alpha-thrombin (F2, Homo sapiens, UniProt P00734)
Notes: whole 15-mer aptamer, many near background
For `2'F-ANA at 2 4 5 7 8 9 10`, “mean fluorescence intensity” read 48.1 a.u.
`2'F-ANA at 8 9 10 11 12 14` — result for “mean fluorescence intensity”: 106 a.u.
`2'F-ANA at 1 2 3 6 7 8 9 15`: “mean fluorescence intensity” 227 a.u.
For `2'F-ANA at 2 4 5 6 10 11 14`, “mean fluorescence intensity” read 49.1 a.u.
Under “mean fluorescence intensity”, `2'F-ANA at 2 3 4 5 6 12 13` is recorded as 117 a.u.
Under “mean fluorescence intensity”, `2'F-ANA at 1 3 5 6 10 11 15` is recorded as 47 a.u.
For `2'F-ANA at 1 2 3 5 6 8 9 11 12 13`, “mean fluorescence intensity” read 107 a.u.
For `2'F-ANA at 1 4 5 6 8 9 11 13 14 15`, “mean fluorescence intensity” read 46.2 a.u.
`2'F-ANA at 1 9 10 11 13 14`: “mean fluorescence intensity” 94.8 a.u.
For `2'F-ANA at 4 7 9`, “mean fluorescence intensity” read 338 a.u.
Under “mean fluorescence intensity”, `2'F-ANA at 2 4 5 6 7 10 11 14` is recorded as 47.5 a.u.
`2'F-ANA at 3 5 6 7 9 10 14 15` — result for “mean fluorescence intensity”: 47.4 a.u.
Under “mean fluorescence intensity”, `2'F-ANA at 4 6 7 8 10 15` is recorded as 83.2 a.u.
For `2'F-ANA at 4 10 12 14 15`, “mean fluorescence intensity” read 82.6 a.u.
`2'F-ANA at 1 3 4 5 8 9 11 12`: “mean fluorescence intensity” 115 a.u.
For `2'F-ANA at 3 4 5 7 8 9 11 12 13 15`, “mean fluorescence intensity” read 109 a.u.
`2'F-ANA at 1 3 8 9 10 15` — result for “mean fluorescence intensity”: 87.4 a.u.
`2'F-ANA at 1 3 6 8 9 10 13`: “mean fluorescence intensity” 69.5 a.u.
For `2'F-ANA at 1 2 6 8 12 14 15`, “mean fluorescence intensity” read 81.1 a.u.
Under “mean fluorescence intensity”, `2'F-ANA at 3 4 5 8 10 12 13` is recorded as 49.2 a.u.
`2'F-ANA at 4 6 7 13 14`: “mean fluorescence intensity” 93.5 a.u.
`2'F-ANA at 1 2 10 11 12 13` — result for “mean fluorescence intensity”: 62.4 a.u.

Sample 3 — method: RNA Bind-n-Seq; form: RNA; sample: in vitro; concentration: 200 nM; notes: whole 134-nt RNA, ends assumed; together with: 150 mM LiCl; reference: input library; reading: higher = stronger binding; library: 7-deaza-guanosine replaces G
Target: Fragile X messenger ribonucleoprotein 1, C-terminal low-complexity region (Fmr1, Mus musculus, UniProt P35922)
With `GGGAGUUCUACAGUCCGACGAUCGCAGGAAGUAAAAACAAAUGGAAAUGCUUCGCAUAGUGGCAGGGGUGGGGGUUGCUAAGGAAAGGGUGGGAUGGGAGUGGGUAAAGAGUUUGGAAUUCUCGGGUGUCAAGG` the log2 enrichment was 1.79.
The log2 enrichment of `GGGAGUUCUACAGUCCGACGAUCCUCAAGUCCUGUGCUACACAUCGUAUGUACCGAAUCGGGUUGGUUGGGGUUGGAAAGUAUUAUGUUACGCCGUUCGGAUCUGCACUUCCAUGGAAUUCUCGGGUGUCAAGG` is reported as -0.613.
The log2 enrichment of `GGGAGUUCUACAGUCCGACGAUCGCAGGAAGUAAAAACAAAUGGAAAUGCUUCGGAUAGUGGCAGGGGUGGGGGUUCCUAAGGAAAGGGUGGGAUGGGAGUGGGUAAAGAGUUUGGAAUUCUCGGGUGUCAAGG` is reported as 1.12.
`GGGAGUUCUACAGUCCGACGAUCUCAAGUCCUGUGCUACACAUCGUAUGUACCGAAUCGGGAAAGGGUGGGAAAGGGAAAGUAUUAUGUUACGCCGUUCGGAUCUGCACUUCCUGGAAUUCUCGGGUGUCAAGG` has a log2 enrichment of -1.25.
`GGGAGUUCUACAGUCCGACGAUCACCAUGCAGGUGGGCAUCUUUGGGAAGUGGGGCAAGGGGGGGAUAGGGAGGGGGGUAACACUUUGGGAACAGGUGGUCCCAGGUCGUUGCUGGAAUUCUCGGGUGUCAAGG` has a log2 enrichment of 1.07.
For `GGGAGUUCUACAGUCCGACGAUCAGUCCUGUGCUACACAUCGUAUGUACCGAAUCGGGGAAAGGGGUGGGGUUUUUGGGGAAAGUAUUAUGUUACGCCGUUCGGAUCUGCACUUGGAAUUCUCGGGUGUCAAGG`, the log2 enrichment was -0.929.
For `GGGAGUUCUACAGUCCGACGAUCAGUCCUGUGCUACACAUCGUAUGUACCGAAUCGGGAAAAAAAGGGUGGGAAAAAGGGAAAGUAUUAUGUUACGCCGUUCGGAUCUGCACUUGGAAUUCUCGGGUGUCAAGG`, the log2 enrichment was -1.18.
With `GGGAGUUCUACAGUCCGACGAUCCUGUGCUACACAUCGUAUGUACCGAAUCGGCCCCCCCGGGCCCCCCCGGGGCCCCCCCGGGAAAGUAUUAUGUUACGCCGUUCGGAUCUGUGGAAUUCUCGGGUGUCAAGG` the log2 enrichment was -0.441.
`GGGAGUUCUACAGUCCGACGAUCAGUCCUGUGCUACACAUCGUAUGUACCGAAUCGGGAGGGAAAAAGGGAAAAAAAGGGAAAGUAUUAUGUUACGCCGUUCGGAUCUGCACUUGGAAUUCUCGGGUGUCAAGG` gave a log2 enrichment of -0.469.
`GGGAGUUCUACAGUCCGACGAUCAAGUCCUGUGCUACACAUCGUAUGUACCGAAUCGGGUUUGGGUUUGGGGUUUGGGGAAAGUAUUAUGUUACGCCGUUCGGAUCUGCACUUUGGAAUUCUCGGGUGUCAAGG` gave a log2 enrichment of -1.58.
The log2 enrichment of `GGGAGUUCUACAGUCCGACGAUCCAAGUCCUGUGCUACACAUCGUAUGUACCGAAUCGGGGUUUGGGUUUGGGUUUGGAAAGUAUUAUGUUACGCCGUUCGGAUCUGCACUUCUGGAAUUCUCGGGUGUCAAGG` is reported as -0.996.

Sample 4 — method: RNA Bind-n-Seq; form: RNA; sample: in vitro; concentration: 365 nM; reference: no-protein control; reading: higher = stronger binding
Target: RNA binding protein fox-1 homolog 2, RRM domain, GST-SBP tag (RBFOX2, Homo sapiens, UniProt O43251-10, residues 100-194)
Notes: natural RNA segment, single round, ends assumed
Construct (chain): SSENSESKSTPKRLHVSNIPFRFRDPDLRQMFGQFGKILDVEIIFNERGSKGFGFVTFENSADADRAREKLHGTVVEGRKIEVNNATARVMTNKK
For `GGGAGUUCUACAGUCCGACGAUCUCAUGAAAGGGGCAGUUGCACAGUGGAAUGACUCCUCUCCUGGAUCUGGGGACAGCAUACACUUCUUCCCCAGCUCAGUAAUGGGUGAAGUCACUUCCGGAGGUGGUCACUGGAAUUCUCGGGUGCCAA`, “RBNS enrichment (R)” read 0.303.
For `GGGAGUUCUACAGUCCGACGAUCGCCUUAAGGUUUUCCUAAGGAAUUAACAGGUCUUUUCAUCUUGUAUAGUUUUUACAGUGUGAAUCCAACAUUGGCUCAGUAUGCUAAUGUGACAGUCAACAGUUAUCUAAUGGAAUUCUCGGGUGCCAA`, “RBNS enrichment (R)” read 0.31.
`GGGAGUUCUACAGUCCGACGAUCGCAGCAGACGGGCUCUCGGGAGUCGUGGGUUCCAGGCAGCUGUGUGGACCCAGGGACAGACAUUCAAAGGGACGCCAGCCAUCCUUAGUGACAGGGGCCCCAACUUAGCAUGGAAUUCUCGGGUGCCAA` — result for “RBNS enrichment (R)”: 1.38.
For `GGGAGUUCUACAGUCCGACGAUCACAGGGGUCCCACAUUCUUGUGUAGUUUGCACAGGUACAUGUGCAGUUUCCUGAAGGAUGGAGGGAAUCUUUGUAAACAGAGAUCCACUUGCCAGGAUAAAAAUGUGGCCUGGAAUUCUCGGGUGCCAA`, “RBNS enrichment (R)” read 0.257.
For `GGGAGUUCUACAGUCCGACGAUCAGCCACCAUGUGGUUGCUUUAAGAUUUAUGUAUAUGAGUACACUGUGGCUGUCUCAGACACACCAGAAGAGGGCAUCAGAUCCCAUUACAGAUGGUUGUGAGCCACCAUGUGGAAUUCUCGGGUGCCAA`, “RBNS enrichment (R)” read 0.296.
Under “RBNS enrichment (R)”, `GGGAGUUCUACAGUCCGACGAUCCAUGCUAAUAUUUGUGAGACAUGAAAACUAUUUCAAAGCCAACUUUGUUGUCUUGUUGUAUAAGAAAUCUAGGUAGGUGCUUUCAACUAGAGUGUUGACCUUGUUAAGACUGGAAUUCUCGGGUGCCAA` is recorded as 0.349.
Under “RBNS enrichment (R)”, `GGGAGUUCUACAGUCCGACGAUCUGGGUUUUUGCGAGUGCUUUGUUUACUAAGGACUUUGGGGAGGAACCAUGCUAAGCCAUGACCAGUGAGGAGAAGCAACAGAGCCUGUCUGUCCCCAUGAGCGGAGUCUGUGGAAUUCUCGGGUGCCAA` is recorded as 0.763.
`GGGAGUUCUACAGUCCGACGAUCUUUGUAGUCUAGUCUAUUCUGAAGAUAUUUGAUUAAUAUAUUUCUAAGAAGACCACUAGUCCCAUGAAGUCUCACCUUGUUGACUUCCACCAGAACAAAACCUGUUAAUUUGGAAUUCUCGGGUGCCAA`: “RBNS enrichment (R)” 0.257.
For `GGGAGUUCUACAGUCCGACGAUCGGGGGCAUGAACAAAAACCAGUGCCUCGUUGUGCACAGUCCUCUAAAAGUAGCAUUCUUAUCUGUUAGAAACAUAGAGUGAGCUUCAUCUGUAAUCCUUAAACUCGAUGUUGGAAUUCUCGGGUGCCAA`, “RBNS enrichment (R)” read 0.591.
`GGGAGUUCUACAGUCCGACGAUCUAUUCAGAGAGAUGUUUGUCACCUUUCUUUUUGGUAGACCUGUUGGGUUGGUUCCUAUUACAUGAGCUCUUUUGCAGAUAGCACAUUCAGUAGCCUUAUCCUGUUGGUGGUGGAAUUCUCGGGUGCCAA` — result for “RBNS enrichment (R)”: 0.558.
`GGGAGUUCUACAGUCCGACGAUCCGUGGCUGCACGGAGUCACAAGCCUCUUGACAUGUUAGCCAUUUCCAGCGUCCUAACUGACUGUAAUCGACCGGGUUUUCAUCCCCUGUCCCAUCCCCUGAGCAUCUUUUUGGAAUUCUCGGGUGCCAA`: “RBNS enrichment (R)” 0.402.
For `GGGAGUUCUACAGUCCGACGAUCUCCACUGAGGCAGUUUCUGGUACUCCUAUGCAAUAUUACUUAGCUUUUUUAUUGUAAAAAGAGAAUCAACUCAACUGUCAGUACUGAGAAGGGAUUUGGGUGUAGGGGCAUGGAAUUCUCGGGUGCCAA`, “RBNS enrichment (R)” read 2.24.

Excerpt of the above (sample 1):
The E-score of `GCTCAGAC` is reported as 0.0367.
The E-score of `ACACGAGA` is reported as -0.0915.
`GAGCAAGA` has an E-score of 0.125.
`ACGCCCGG` has an E-score of 0.234.
`AACTAGCT` has an E-score of 0.102.
The E-score of `GCGCCCTA` is reported as 0.0421.
For `TAGTTCGA`, the E-score was -0.00609.
`AGAGGCAG` gave an E-score of -0.00936.
`AAAGAACT` gave an E-score of 0.124.
`AATCTTCA` has an E-score of 0.0505.
`AATTGCTG` gave an E-score of 0.0212.
